{"data": "Published values from different studies", "note": "Protocols differ between the studies behind these lines. Values joined by “and” are separate records of one study, mostly repeats; a detail may differ. ± marks the error that the study gave."}
{"Compound": "c1ccc(CN2CCOCCOCCN(CCCCCCCCCCN3CCOCCOCCN(CCCCCCCCCCN4CCOCCOCCN(Cc5ccccc5)CCOCCOCC4)CCOCCOCC3)CCOCCOCC2)cc1", "organism": "Klebsiella pneumoniae", "test": "tetracycline MIC, checkerboard", "system": "ATCC BAA-2146", "setting": "quarter MIC, with: tetracycline", "scale": "reference: MIC alone over combination", "measurement": "fold enhancement", "result": "3 fold"}
{"Compound": "CC1(C)C(NC(=O)C(=NOCC(=O)N2CC3CCCC3C2C(=O)O)c2csc(N)n2)C(=O)N1OS(=O)(=O)O (stereo not shown)", "organism": "Enterobacter aerogenes", "test": "agar dilution", "system": "ATCC 13048, susceptible", "measurement": "MIC", "result": "2 µg/mL"}
{"Compound": "CCCC(=O)C#Cc1ccc(F)c(F)c1", "organism": "Pseudomonas aeruginosa", "test": "RT-qPCR, item: phzC1", "system": "biofilm cells", "setting": "10 µM, 24 h", "scale": "reference: untreated", "measurement": "mRNA level", "result": "52%"}
{"Compound": "Nc1nc(-c2ccccc2)nc2[nH]nc(Nc3cccc(F)c3)c12", "organism": "rhinovirus B48", "test": "viral cytopathic effect", "system": "HeLa", "measurement": "IC50", "result": "380 nM"}
{"Compound": "CC[C@H](C)[C@H](NC(=O)[C@@H]1CCCN1C(=O)[C@H](CCSC)NC(=O)[C@H](CC(C)C)NC(=O)[C@H](Cc1ccccc1)NC(=O)[C@H](Cc1ccc(O)cc1)NC(=O)[C@@H]1CCC(=O)NCC(=O)NCC(=O)NCC(=O)NCC(=O)N2CCC[C@H]2C(=O)N[C@@H]([C@@H](C)O)C(=O)N2CCC[C@H]2C(=O)N1)C(=O)N[C@@H](CC(=O)O)C(=O)N1CCC[C@H]1C(=O)N[C@@H](C)C(=O)N[C@@H](Cc1c[nH]c2ccccc12)C(=O)N[C@@H](CC(C)C)C(=O)N[C@@H](CCC(N)=O)C(=O)N[C@@H](C)C(=O)N[C@@H](CC(N)=O)C(=O)N[C@@H](CC(C)C)C(=O)N1CCC[C@H]1C(=O)N[C@@H](CC(N)=O)C(=O)N[C@H](C(=O)NCC(=O)N[C@@H](CCCCN)C(=O)N[C@@H](Cc1ccc(O)cc1)C(=O)N[C@@H](CC(N)=O)C(=O)O)[C@@H](C)O", "organism": "Burkholderia cepacia", "test": "spot-on-lawn", "system": "ATCC 25416", "setting": "concentration not given, 32 °C", "measurement": "antimicrobial activity", "result": "inactive"}
{"Compound": "C=C[C@]1(C)C[C@@H](OC(=O)CSc2ccc(NC(=O)c3ccco3)cc2)[C@]2(C)[C@H](C)CC[C@]3(CCC(=O)[C@H]32)[C@@H](C)[C@@H]1O", "organism": "Mycoplasma gallisepticum", "system": "infected chickens, lung", "setting": "intramuscular, 5 mg/kg daily x3, 72 h", "measurement": "lung mycoplasma count", "result": "5.22 log10 CFU/mL and 4.84 log10 CFU/mL and 5.56 log10 CFU/mL and 5.08 log10 CFU/mL and 5.2 log10 CFU/mL and 4.41 log10 CFU/mL and 4.67 log10 CFU/mL"}
{"Compound": "CC(=O)OC[C@H]1O[C@@H](Sc2sc(C(=O)c3ccc(C)cc3)c(N)c2-c2nc3ccccc3s2)[C@H](OC(C)=O)[C@@H](OC(C)=O)[C@@H]1OC(C)=O", "organism": "herpes simplex virus 1", "test": "plaque reduction", "setting": "non-toxic dose NG, mean over three titres", "measurement": "viral reduction", "result": "6.7%"}
{"Compound": "CC[C@H](C)CCCCC(=O)N[C@@H](CCN)C(=O)N[C@H](C(=O)N[C@@H](CCN)C(=O)N[C@H]1CCNC(=O)[C@H]([C@@H](C)O)NC(=O)[C@H](CCN)NC(=O)[C@H](CCN)NC(=O)[C@H](CC(C)C)NC(=O)[C@@H](CC(C)C)NC(=O)[C@H](CCN)NC1=O)[C@@H](C)O", "organism": "Pseudomonas aeruginosa", "system": "BAA-2797, BALB/c mouse peritonitis, liver", "setting": "dose not given", "measurement": "bacterial load", "result": "2.83 log CFU and 2.2 log CFU and 2.45 log CFU and 2.3 log CFU and 2.68 log CFU"}
{"Compound": "c1ccc(CN2CCOCCOCCN(CCCCCCCCCCCCCCN3CCOCCOCCN(CCCCCCCCCCCCCCN4CCOCCOCCN(Cc5ccccc5)CCOCCOCC4)CCOCCOCC3)CCOCCOCC2)cc1", "organism": "Klebsiella pneumoniae", "test": "ciprofloxacin activity", "system": "ATCC BAA-2146", "setting": "half MIC, with: ciprofloxacin", "scale": "reference: ciprofloxacin alone", "measurement": "fold enhancement", "result": "3 fold"}
{"Compound": "C=C1C(=O)OC2C1CCC(C)(O)C13C=CC(C)(C21)C1(C3)C(=O)OC2C3C(C)C(=O)CC3C(=C)CC(OC(C)=O)C21 (stereo not shown)", "organism": "Danio rerio", "setting": "concentration not given, HFD-fed larvae NAFLD model", "measurement": "SOD2 activity", "result": "increased"}
{"Compound": "CC1(C)[C@H](NC(=O)/C(=N\\OCCN)c2csc(N)n2)C(=O)N1OS(=O)(=O)O", "organism": "Enterobacter aerogenes", "test": "agar dilution", "system": "ATCC 13048, susceptible", "measurement": "MIC", "result": "2 µg/mL"}
{"Compound": "CC(=O)O[C@@H]1[C@@H](OC(C)=O)[C@H](Sc2sc(C(=O)c3ccc(C)cc3)c(N)c2-c2nc3ccccc3s2)OC[C@H]1OC(C)=O", "organism": "herpes simplex virus 1", "test": "plaque reduction", "setting": "non-toxic dose NG, mean over three titres", "measurement": "viral reduction", "result": "16.7%"}
{"Compound": "CC1C=CC=CC(C)C2C=CC3CC(C)(O)C(Cl)C(C)C3C2C(=O)C(Cl)(Cl)C(=O)C(C)C(=O)O1 (stereo not shown)", "organism": "Staphylococcus aureus", "system": "MRSA clinical isolate", "setting": "resistant: OXA,CLI,ERY,GEN,TET", "measurement": "MIC", "result": "0.05 µg/mL"}
{"Compound": "Cc1cc(Cl)cc(S(C)=NC#N)c1NC(=O)c1cc(Br)nn1-c1ncccc1Cl (stereo not shown)", "organism": "Plutella xylostella", "system": "Raphanus sativus field", "setting": "50 ppm, 168 h, 10% wettable powder", "measurement": "larval survival", "result": "10.7%"}
{"Compound": "C[C@@H]1C(=O)O[C@@H](C)/C=C/C=C\\[C@@H](C)[C@@H]2C=C[C@@H]3C[C@@]4(C)O[C@H]4[C@@H](C)[C@H]3[C@@H]2C(=O)C(Cl)(Cl)C1=O", "organism": "Staphylococcus aureus", "system": "MRSA clinical isolate", "setting": "resistant: OXA,CIP,CLI,DAP,ERY,LVX,MXF,TOB", "measurement": "MIC", "result": "0.0125 µg/mL"}
{"Compound": "COC1C=COC2(C)Oc3c(C)c(O)c4c(c3C2=O)C2=NC3(CCN(CC(C)C)CC3)NC2=C(NC(=O)C(C)=CC=CC(C)C(O)C(C)C(O)C(C)C(OC(=O)Nc2cccnn2)C1C)C4=O (stereo not shown)", "organism": "Mycobacteroides abscessus", "test": "bacterial growth", "system": "subsp. abscessus clinical isolate", "setting": "slow grower", "measurement": "IC90", "result": "73 nM"}
{"Compound": "Nc1nc(-c2ccccc2)nc2[nH]nc(Nc3c(F)cccc3F)c12", "organism": "rhinovirus B48", "test": "viral cytopathic effect", "system": "HeLa", "measurement": "IC50", "result": "7760 nM"}
{"Compound": "CCOC(=O)c1cc(-c2nc3ccccc3s2)c(=O)n(NS(=O)(=O)c2ccc(Cl)cc2)c1N", "organism": "herpes simplex virus 1", "test": "viral replication, plaque", "system": "Vero", "setting": "non-toxic dose, mean of three titres", "measurement": "plaque reduction", "result": "0%"}
{"Compound": "Cc1ccc(-c2nc(N)c3c(Nc4ccc(Cl)cc4)n[nH]c3n2)cc1", "organism": "rhinovirus B48", "test": "viral cytopathic effect", "system": "HeLa", "measurement": "IC50", "result": "990 nM"}
{"Compound": "O=C(Nn1c(-c2cccc(Cl)c2)nc2ccccc2c1=O)c1ccccc1", "organism": "Fasciola hepatica", "system": "adult, ex vivo", "setting": "concentration not given", "measurement": "time to motility loss", "result": "≤ 10 min"}
{"Compound": "Nc1nc(-c2ccccc2)nc2[nH]nc(Nc3ccc(F)c(F)c3F)c12", "organism": "rhinovirus B48", "test": "viral cytopathic effect", "system": "HeLa", "measurement": "IC50", "result": "100 nM"}
{"Compound": "Cc1cccc2c1N(C(=O)n1ccnn1)CC2", "organism": "Arabidopsis thaliana", "system": "kai2 mutant, seeds", "setting": "100 µM, 72 h", "measurement": "germination rate", "result": "61.5% and 66.7% and 53.6% and 40.5% and 34.7%"}
{"Compound": "Nc1nc(-c2ccccc2)nc2[nH]nc(Nc3cccnc3)c12", "organism": "rhinovirus B48", "test": "viral cytopathic effect", "system": "HeLa", "measurement": "IC50", "result": "28500 nM"}
{"Compound": "CC1(C)C(NC(=O)C(=NOC2(C(=O)O)CCC2)c2csc(N)n2)C(=O)N1OS(=O)(=O)O (stereo not shown)", "organism": "Enterobacter aerogenes", "test": "agar dilution", "system": "ATCC 13048, susceptible", "measurement": "MIC", "result": "1 µg/mL"}
{"Compound": "C=C(NC(=O)c1csc(-c2nc3c(cc2O)-c2nc(cs2)C(=O)NC(C(C)O)C(=O)NC(=C(C)OC)c2nc(cs2)C(=O)NC2c4nc(cs4)C(=O)NC(COC(=O)c4c5c6c(cccc6n4O)COC(=O)C(OC4CC(C)(O)C(N(C)C)C(C)O4)C2OC5)c2nc-3cs2)n1)C(N)=O (stereo not shown)", "organism": "Staphylococcus aureus", "system": "MRSA, 10 isolates", "setting": "serum 0%", "measurement": "MIC50", "result": "0.0156 µg/mL"}
{"Compound": "OC(Cn1cncn1)(Cn1cc(-[c-]2cccc2)nn1)c1ccc(F)cc1F.[Cl-].[Co+3].c1cc[cH-]c1 (racemic)", "organism": "Candida glabrata", "test": "EUCAST", "measurement": "MIC50", "result": "100 µM"}
{"Compound": "CC(O)CNCC(C)O.O=C(O)C(Cl)Cl (stereo not shown)", "organism": "Solanum nigrum", "test": "herbicidal activity", "setting": "15 mg/mL, 21 days, post-emergence greenhouse", "measurement": "inhibition", "result": "0%"}
{"Compound": "CNCc1ccc2c(c1)C[C@H](CNC(=N)N)[C@H]2NC(=O)C(=O)Nc1ccc(Cl)c(F)c1", "organism": "HIV-1", "test": "pseudovirus infection, Env pseudovirus neutralisation", "system": "TZM-bl, clade C", "measurement": "IC50", "result": "4540 nM"}
{"Compound": "COc1ccc(Nc2n[nH]c3nc(-c4ccccc4)nc(N)c23)cc1", "organism": "rhinovirus B48", "test": "viral cytopathic effect", "system": "HeLa", "measurement": "IC50", "result": "40 nM"}
{"Compound": "c1ccc(CN2CCOCCOCCN(CCCCCCCCN3CCOCCOCCN(CCCCCCCCN4CCOCCOCCN(Cc5ccccc5)CCOCCOCC4)CCOCCOCC3)CCOCCOCC2)cc1", "organism": "Klebsiella pneumoniae", "system": "ATCC BAA-2146", "setting": "half MIC, with: tetracycline", "measurement": "tetracycline MIC", "result": "25 ± 10 µM"}
{"Compound": "Cc1ccc(-c2nc(N)c3c(Nc4ccccc4)n[nH]c3n2)cc1", "organism": "rhinovirus B48", "test": "viral cytopathic effect", "system": "HeLa", "measurement": "IC50", "result": "1600 nM"}
{"Compound": "CC(C)(C)NCC(SS(=O)(=O)O)c1ccccc1 (stereo not shown)", "organism": "Schistosoma mansoni", "system": "mice", "setting": "600 mg/kg single dose, dosed day 7, perfused 52", "measurement": "female worms recovered", "result": "11 worms per mouse and 19 worms per mouse and 15 worms per mouse and 16 worms per mouse"}
{"Compound": "Cc1ccc(Nc2n[nH]c3nc(-c4ccncc4)nc(N)c23)cc1", "organism": "rhinovirus B48", "test": "viral cytopathic effect", "system": "HeLa", "measurement": "IC50", "result": "130000 nM"}
{"Compound": "CCCCNCCO.O=C(O)C(Cl)Cl", "organism": "Solanum nigrum", "test": "herbicidal activity", "setting": "15 mg/mL, 21 days, post-emergence greenhouse", "measurement": "inhibition", "result": "0%"}
{"note": "Repeated from above:"}
{"Compound": "O=C(Nn1c(-c2cccc(Cl)c2)nc2ccccc2c1=O)c1ccccc1", "organism": "Fasciola hepatica", "system": "adult, ex vivo", "setting": "concentration not given", "measurement": "time to motility loss", "result": "≤ 10 min"}
{"Compound": "Nc1nc(-c2ccccc2)nc2[nH]nc(Nc3ccc(F)c(F)c3F)c12", "organism": "rhinovirus B48", "test": "viral cytopathic effect", "system": "HeLa", "measurement": "IC50", "result": "100 nM"}
{"Compound": "Cc1cccc2c1N(C(=O)n1ccnn1)CC2", "organism": "Arabidopsis thaliana", "system": "kai2 mutant, seeds", "setting": "100 µM, 72 h", "measurement": "germination rate", "result": "61.5% and 66.7% and 53.6% and 40.5% and 34.7%"}
{"Compound": "Nc1nc(-c2ccccc2)nc2[nH]nc(Nc3cccnc3)c12", "organism": "rhinovirus B48", "test": "viral cytopathic effect", "system": "HeLa", "measurement": "IC50", "result": "28500 nM"}
{"Compound": "CC1(C)C(NC(=O)C(=NOC2(C(=O)O)CCC2)c2csc(N)n2)C(=O)N1OS(=O)(=O)O (stereo not shown)", "organism": "Enterobacter aerogenes", "test": "agar dilution", "system": "ATCC 13048, susceptible", "measurement": "MIC", "result": "1 µg/mL"}
{"Compound": "C=C(NC(=O)c1csc(-c2nc3c(cc2O)-c2nc(cs2)C(=O)NC(C(C)O)C(=O)NC(=C(C)OC)c2nc(cs2)C(=O)NC2c4nc(cs4)C(=O)NC(COC(=O)c4c5c6c(cccc6n4O)COC(=O)C(OC4CC(C)(O)C(N(C)C)C(C)O4)C2OC5)c2nc-3cs2)n1)C(N)=O (stereo not shown)", "organism": "Staphylococcus aureus", "system": "MRSA, 10 isolates", "setting": "serum 0%", "measurement": "MIC50", "result": "0.0156 µg/mL"}
